Measurements pooled from the literature.
A part holds a random share of what one study measured.
Sequence of UniProt P46734 (whole entry, looked up): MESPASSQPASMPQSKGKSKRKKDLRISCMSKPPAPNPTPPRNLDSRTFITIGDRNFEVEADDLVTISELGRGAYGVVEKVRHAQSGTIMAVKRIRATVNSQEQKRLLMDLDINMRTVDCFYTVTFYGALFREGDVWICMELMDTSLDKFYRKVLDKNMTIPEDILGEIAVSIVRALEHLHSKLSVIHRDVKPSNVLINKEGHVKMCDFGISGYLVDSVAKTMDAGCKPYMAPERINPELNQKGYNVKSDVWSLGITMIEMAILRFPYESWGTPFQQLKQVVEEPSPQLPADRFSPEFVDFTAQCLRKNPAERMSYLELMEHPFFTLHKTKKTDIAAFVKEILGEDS
Sequence of UniProt Q13153 (whole entry, looked up): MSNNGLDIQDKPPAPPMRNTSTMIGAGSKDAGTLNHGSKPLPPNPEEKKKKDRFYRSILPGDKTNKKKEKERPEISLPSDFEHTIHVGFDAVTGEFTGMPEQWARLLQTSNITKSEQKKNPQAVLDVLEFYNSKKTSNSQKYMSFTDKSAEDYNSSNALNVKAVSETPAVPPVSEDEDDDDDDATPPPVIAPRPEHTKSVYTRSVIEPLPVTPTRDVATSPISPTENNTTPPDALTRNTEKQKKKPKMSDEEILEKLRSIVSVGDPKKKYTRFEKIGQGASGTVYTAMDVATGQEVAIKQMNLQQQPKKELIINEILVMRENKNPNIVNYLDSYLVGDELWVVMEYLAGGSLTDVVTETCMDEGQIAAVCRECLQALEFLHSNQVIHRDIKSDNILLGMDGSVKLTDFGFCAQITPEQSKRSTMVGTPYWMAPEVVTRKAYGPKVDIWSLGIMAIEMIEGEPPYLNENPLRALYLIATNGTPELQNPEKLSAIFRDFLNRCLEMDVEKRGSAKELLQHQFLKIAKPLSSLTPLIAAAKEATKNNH
Sequence of UniProt P07949 (whole entry, looked up): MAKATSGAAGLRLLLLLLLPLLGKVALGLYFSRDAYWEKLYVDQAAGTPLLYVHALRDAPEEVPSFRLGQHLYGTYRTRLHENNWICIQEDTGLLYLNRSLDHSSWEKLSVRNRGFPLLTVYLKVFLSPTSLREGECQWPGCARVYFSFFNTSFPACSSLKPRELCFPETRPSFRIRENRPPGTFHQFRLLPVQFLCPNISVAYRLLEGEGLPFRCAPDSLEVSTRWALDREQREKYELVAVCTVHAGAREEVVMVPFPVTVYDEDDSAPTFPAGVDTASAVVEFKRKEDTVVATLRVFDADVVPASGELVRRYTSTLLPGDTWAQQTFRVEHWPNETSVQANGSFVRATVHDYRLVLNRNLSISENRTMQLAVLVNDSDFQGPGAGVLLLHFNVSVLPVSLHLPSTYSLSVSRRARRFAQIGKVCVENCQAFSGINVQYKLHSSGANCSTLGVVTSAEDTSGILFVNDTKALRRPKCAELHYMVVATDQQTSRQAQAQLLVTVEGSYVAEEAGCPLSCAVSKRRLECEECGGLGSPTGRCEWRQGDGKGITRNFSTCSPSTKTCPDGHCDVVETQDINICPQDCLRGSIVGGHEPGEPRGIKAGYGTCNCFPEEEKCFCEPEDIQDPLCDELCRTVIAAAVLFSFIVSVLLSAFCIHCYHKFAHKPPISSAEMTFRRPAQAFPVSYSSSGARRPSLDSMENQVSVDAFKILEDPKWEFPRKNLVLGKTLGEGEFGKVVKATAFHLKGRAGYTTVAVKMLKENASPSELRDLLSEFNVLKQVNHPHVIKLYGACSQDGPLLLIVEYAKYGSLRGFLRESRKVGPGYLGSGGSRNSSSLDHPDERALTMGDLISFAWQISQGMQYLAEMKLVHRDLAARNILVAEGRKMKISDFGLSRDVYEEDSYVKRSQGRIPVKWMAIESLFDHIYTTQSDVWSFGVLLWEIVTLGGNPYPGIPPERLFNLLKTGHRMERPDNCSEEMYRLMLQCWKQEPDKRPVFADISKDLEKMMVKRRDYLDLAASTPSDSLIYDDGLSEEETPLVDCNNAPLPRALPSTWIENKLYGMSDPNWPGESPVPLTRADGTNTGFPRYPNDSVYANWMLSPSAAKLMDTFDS
Sequence of UniProt P51957 (whole entry, looked up): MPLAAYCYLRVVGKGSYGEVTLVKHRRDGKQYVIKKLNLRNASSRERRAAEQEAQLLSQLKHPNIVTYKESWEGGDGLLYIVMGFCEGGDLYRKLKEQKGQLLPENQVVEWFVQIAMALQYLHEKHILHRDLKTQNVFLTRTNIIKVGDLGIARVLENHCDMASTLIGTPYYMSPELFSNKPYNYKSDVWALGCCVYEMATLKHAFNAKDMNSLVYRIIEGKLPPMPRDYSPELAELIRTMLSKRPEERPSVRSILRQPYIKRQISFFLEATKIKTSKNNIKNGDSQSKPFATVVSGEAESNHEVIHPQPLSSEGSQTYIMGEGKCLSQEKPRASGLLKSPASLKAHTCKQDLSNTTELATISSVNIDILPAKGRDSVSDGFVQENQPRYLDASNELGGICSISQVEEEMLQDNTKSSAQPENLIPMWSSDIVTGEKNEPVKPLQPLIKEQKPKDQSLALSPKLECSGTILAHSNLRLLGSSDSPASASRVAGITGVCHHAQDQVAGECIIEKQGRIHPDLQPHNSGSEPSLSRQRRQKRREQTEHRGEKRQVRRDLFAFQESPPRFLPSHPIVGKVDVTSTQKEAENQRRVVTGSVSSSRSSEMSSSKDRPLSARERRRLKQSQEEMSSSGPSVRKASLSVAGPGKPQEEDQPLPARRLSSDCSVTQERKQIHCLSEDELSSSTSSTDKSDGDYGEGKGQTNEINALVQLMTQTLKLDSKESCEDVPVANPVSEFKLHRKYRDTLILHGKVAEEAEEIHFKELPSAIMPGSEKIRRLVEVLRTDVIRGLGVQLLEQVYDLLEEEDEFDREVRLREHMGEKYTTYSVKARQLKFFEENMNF
Sequence of UniProt Q14004 (whole entry, looked up): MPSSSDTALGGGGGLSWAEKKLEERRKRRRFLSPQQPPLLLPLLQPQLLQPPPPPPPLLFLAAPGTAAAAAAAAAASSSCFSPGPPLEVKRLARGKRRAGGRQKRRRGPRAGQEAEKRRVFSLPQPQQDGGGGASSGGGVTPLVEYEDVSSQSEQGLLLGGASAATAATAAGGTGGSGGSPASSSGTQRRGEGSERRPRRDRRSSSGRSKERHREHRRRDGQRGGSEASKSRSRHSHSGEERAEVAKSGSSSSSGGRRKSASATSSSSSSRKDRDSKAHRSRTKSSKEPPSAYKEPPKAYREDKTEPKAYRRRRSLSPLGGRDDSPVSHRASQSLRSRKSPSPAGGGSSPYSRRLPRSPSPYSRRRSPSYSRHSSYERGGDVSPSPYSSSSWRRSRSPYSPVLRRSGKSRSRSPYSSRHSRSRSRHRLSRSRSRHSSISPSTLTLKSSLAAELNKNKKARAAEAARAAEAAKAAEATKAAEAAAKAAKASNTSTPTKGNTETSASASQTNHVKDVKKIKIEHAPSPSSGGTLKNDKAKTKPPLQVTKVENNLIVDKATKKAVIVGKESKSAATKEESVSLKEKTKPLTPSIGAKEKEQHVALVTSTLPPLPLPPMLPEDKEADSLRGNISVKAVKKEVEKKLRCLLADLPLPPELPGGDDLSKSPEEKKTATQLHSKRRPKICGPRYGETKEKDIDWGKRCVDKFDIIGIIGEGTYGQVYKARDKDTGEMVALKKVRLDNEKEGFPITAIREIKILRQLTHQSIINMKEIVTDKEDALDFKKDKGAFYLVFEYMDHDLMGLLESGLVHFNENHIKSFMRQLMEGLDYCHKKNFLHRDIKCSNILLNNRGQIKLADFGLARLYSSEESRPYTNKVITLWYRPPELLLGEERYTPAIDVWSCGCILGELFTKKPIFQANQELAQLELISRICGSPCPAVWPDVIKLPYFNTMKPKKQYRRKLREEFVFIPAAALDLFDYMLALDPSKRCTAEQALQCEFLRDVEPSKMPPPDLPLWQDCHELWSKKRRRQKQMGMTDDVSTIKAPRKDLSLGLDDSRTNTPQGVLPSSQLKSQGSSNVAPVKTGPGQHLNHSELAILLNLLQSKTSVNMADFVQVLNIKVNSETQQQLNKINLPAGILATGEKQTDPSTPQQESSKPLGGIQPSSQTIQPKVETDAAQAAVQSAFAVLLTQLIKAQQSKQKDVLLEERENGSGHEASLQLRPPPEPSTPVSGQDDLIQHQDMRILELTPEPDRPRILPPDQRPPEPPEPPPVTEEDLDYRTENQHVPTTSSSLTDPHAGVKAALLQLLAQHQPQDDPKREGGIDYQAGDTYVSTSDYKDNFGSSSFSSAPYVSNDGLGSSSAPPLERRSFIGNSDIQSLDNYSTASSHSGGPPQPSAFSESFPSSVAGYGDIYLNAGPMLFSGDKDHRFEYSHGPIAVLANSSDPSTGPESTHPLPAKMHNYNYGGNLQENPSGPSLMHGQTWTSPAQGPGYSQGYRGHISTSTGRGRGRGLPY
Sequence of UniProt Q04771 (whole entry, looked up): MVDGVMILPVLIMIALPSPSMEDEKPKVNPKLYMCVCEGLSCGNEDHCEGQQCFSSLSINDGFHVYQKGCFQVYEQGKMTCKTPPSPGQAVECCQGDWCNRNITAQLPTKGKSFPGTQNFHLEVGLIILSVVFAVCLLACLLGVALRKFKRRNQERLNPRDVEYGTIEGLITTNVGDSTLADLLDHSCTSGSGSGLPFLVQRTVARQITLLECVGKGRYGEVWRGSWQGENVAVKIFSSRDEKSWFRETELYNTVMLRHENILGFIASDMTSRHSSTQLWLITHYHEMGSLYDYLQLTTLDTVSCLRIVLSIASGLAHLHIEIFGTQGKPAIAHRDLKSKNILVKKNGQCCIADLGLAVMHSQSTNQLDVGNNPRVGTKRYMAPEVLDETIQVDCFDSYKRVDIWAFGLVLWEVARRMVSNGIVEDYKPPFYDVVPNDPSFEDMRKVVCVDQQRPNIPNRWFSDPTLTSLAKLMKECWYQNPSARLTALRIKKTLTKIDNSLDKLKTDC

Set 1 — host: human; medium: microsomes or S9; tested at: 2 µM; time: 0.5 h; endpoint: remaining compound
SMILES = COc1ccccc1N1C(=N)C(C)(C(C)C)NC1=O (stereo not shown); value = 94.3%
SMILES = Cc1ccc2nc(-c3nnc(-c4noc5c4CC(C)CC5)o3)ccc2c1 (stereo not shown); value = 0.512%
SMILES = CN1CCc2c(c3ccccc3n2-c2cncnc2)C1; value = 69.3%
SMILES = Cc1ccc(S(=O)(=O)Nc2nc3ccc(NC(=O)c4cc(-c5cccs5)n[nH]4)cc3s2)cc1; value = 0.155%
SMILES = Nc1nc(-c2ccc(F)cc2)nc2oc(-c3ccccc3)nc12; value = 86.3%
SMILES = CCCS(=O)(=O)N1CC(=O)N(c2ccc(F)cc2F)C(C)(C(=O)NC2CCCCCCC2)C1 (stereo not shown); value = 0.575%
SMILES = Cc1cccc(CNC(=O)c2c(OCC(C)C)cc(=O)n3c2CCCCC3)c1; value = 5.29%
SMILES = Cn1cc(-c2ccc3nnc(C[C@H](O)CO)n3n2)cn1; value = 101%
SMILES = C[C@@H](c1cn(-c2cccc[n+]2[O-])c(=O)c2c(C(F)(F)F)cccc12)N1C(=O)c2ccccc2C1=O; value = 98.6%
SMILES = CC(C)(C)c1ccc(Oc2ccc(N)c(Cl)c2)cc1; value = 76.4%
SMILES = c1ccc(Cn2ncc3c(-n4ccnc4)ncnc32)cc1; value = > 100%
SMILES = CC(C)CNc1oc(/C=C/c2cccs2)nc1C#N; value = 0.355%
SMILES = CCc1cc(Nc2nc(Cl)ncc2OC)n[nH]1; value = 38.4%
SMILES = CN1CCN(c2nc(Nc3ccc(F)cc3)nc(Nc3ccc(F)cc3)n2)CC1; value = > 100%
SMILES = Fc1ccc2nccc(Nc3ccccc3F)c2c1; value = 90.5%

Set 2 — technique: competition with immobilised ligand; tested at: 1 µM; endpoint: remaining binding
SMILES: CCCOc1ccc([C@@H]2[C@@H](C(=O)O)[C@H](c3ccc4c(c3)OCO4)CN2CC(=O)Nc2c(CC)cccc2CC)cc1
target = Maternal embryonic leucine zipper kinase (MELK, Homo sapiens, UniProt Q14680); read-out = cell-free assay; value = 84%
target = Activin receptor type-1 (ACVR1, Homo sapiens, UniProt Q04771); read-out = cell-free assay; value = 95%
target = Calcium/calmodulin-dependent protein kinase kinase 1 (CAMKK1, Homo sapiens, UniProt Q8N5S9); read-out = cell-free assay; value = 81%
target = Membrane-associated tyrosine- and threonine-specific cdc2-inhibitory kinase (PKMYT1, Homo sapiens, UniProt Q99640); read-out = cell-free assay; value = 100%
target = Ribosomal protein S6 kinase alpha-1, N-terminal kinase domain (RPS6KA1, Homo sapiens, UniProt Q15418); read-out = cell-free assay; value = 100%
target = Mitogen-activated protein kinase kinase kinase 7 (MAP3K7, Homo sapiens, UniProt O43318); read-out = cell-free assay; value = 97%
target = Platelet-derived growth factor receptor alpha (PDGFRA, Homo sapiens, UniProt P16234); read-out = cell-free assay; value = 76%
target = Proto-oncogene tyrosine-protein kinase receptor Ret (RET, Homo sapiens, UniProt P07949); read-out = cell-free assay; value = 97%
target = Serine/threonine-protein kinase STK11 (STK11, Homo sapiens, UniProt Q15831); read-out = cell-free assay; value = 100%
target = Mitogen-activated protein kinase kinase kinase 11 (MAP3K11, Homo sapiens, UniProt Q16584); read-out = cell-free assay; value = 100%
target = Activin receptor type-2A (ACVR2A, Homo sapiens, UniProt P27037); read-out = cell-free assay; value = 100%
target = Ribosomal protein S6 kinase alpha-2, C-terminal kinase domain (RPS6KA2, Homo sapiens, UniProt Q15349); read-out = cell-free assay; value = 81%
target = cAMP-dependent protein kinase catalytic subunit PRKX (PRKX, Homo sapiens, UniProt P51817); read-out = cell-free assay; value = 89%
target = Dual specificity mitogen-activated protein kinase kinase 3 (MAP2K3, Homo sapiens, UniProt P46734); read-out = cell-free assay; value = 82%
target = Dual specificity mitogen-activated protein kinase kinase 4 (MAP2K4, Homo sapiens, UniProt P45985); read-out = cell-free assay; value = 83%
target = Serine/threonine-protein kinase Nek4 (NEK4, Homo sapiens, UniProt P51957); read-out = cell-free assay; value = 72%
target = Ribosomal protein S6 kinase alpha-4, C-terminal kinase domain (RPS6KA4, Homo sapiens, UniProt O75676); read-out = cell-free assay; value = 90%
target = Serine/threonine-protein kinase PAK 1 (PAK1, Homo sapiens, UniProt Q13153); read-out = cell-free assay; value = 98%
target = Cyclin-dependent kinase 13 (CDK13, Homo sapiens, UniProt Q14004); read-out = cell-free assay; value = 81%
target = Beta-adrenergic receptor kinase 1 (GRK2, Homo sapiens, UniProt P25098); read-out = cell-free assay; value = 89%
target = Serine/threonine-protein kinase Nek1 (NEK1, Homo sapiens, UniProt Q96PY6); read-out = cell-free assay; value = 100%
target = Tyrosine-protein kinase ABL1, phosphorylated (ABL1, Homo sapiens, UniProt P00519, E255K); read-out = binding; value = 82%

Set 3 — cell line: A-375; tested at: 100 µM; time: 18 h; endpoint: viability
Compound = O=C(O)CC(O)(CC(=O)O)C(=O)O; value = 92.5%
Compound = COc1ccc(-c2nc3ccc(C4=NNC(=O)CC4C)cc3[nH]2)cc1 (stereo not shown); value = 28.3%
Compound = CNCC(O)c1ccc(O)c(O)c1 (racemic); value = 144%
Compound = CCN(CC)C(=O)N1CCN(C)CC1; value = 103%
Compound = O=C1CC2(CCCC2)CC(=O)N1CCCCN1CCN(c2ncccn2)CC1; value = 79.5%
Compound = Fc1ccc([C@@H]2CCNC[C@H]2COc2ccc3c(c2)OCO3)cc1; value = 8.53%
Compound = CC1(C)S[C@@H]2[C@H](NC(=O)Cc3ccccc3)C(=O)N2[C@H]1C(=O)O; value = 106%
Compound = O=C(O)[C@H](O)[C@@H](O)[C@H](O)[C@H](O)CO; value = 102%
Compound = CNNCc1ccc(C(=O)NC(C)C)cc1; value = 104%
Compound = Cn1c(=O)c2[nH]c(Br)nc2n(C)c1=O; value = 99.7%
Compound = CCCCC1(COC(=O)CCC(=O)O)C(=O)N(c2ccccc2)N(c2ccccc2)C1=O; value = 107%
Compound = O=C1c2c(O)ccc(O)c2C(=O)c2c(NCCNCCO)ccc(NCCNCCO)c21; value = 3.97%
Compound = Cn1c([N+](=O)[O-])cnc1COC(N)=O; value = 108%
Compound = C[C@H]1COc2c(C3(N)CC3)c(F)cc3c(=O)c(C(=O)O)cn1c23; value = 61.8%

Mixed results
SMILES = CCOC(=O)[C@@H]1CSCC(=O)N[C@@H](CC)C(=O)N(C)[C@@H](C)C(=O)N[C@@H](CC(C)C)C(=O)N2CCC[C@@H]2C(=O)N(CC)CC(=O)N[C@H](CC(C)C)C(=O)N(C)[C@H](C)C(=O)N[C@@H](CC(C)C)C(=O)N1C; medium = hydrocarbon/water; endpoint = logD; value = -0.388

A few entries again (set 3):
Compound = CCN(CC)C(=O)N1CCN(C)CC1; value = 103%
Compound = O=C1CC2(CCCC2)CC(=O)N1CCCCN1CCN(c2ncccn2)CC1; value = 79.5%
Compound = Fc1ccc([C@@H]2CCNC[C@H]2COc2ccc3c(c2)OCO3)cc1; value = 8.53%
Compound = CC1(C)S[C@@H]2[C@H](NC(=O)Cc3ccccc3)C(=O)N2[C@H]1C(=O)O; value = 106%
